Results gathered from unrelated publications.
Protocols differ between the studies behind these lines. Several values in a cell are separate wells, animals, samples, runs or records. Numbers after ± are the reported error.
Tumor necrosis factor receptor superfamily member 9/Nectin-4: Tumor necrosis factor receptor superfamily member 9/Nectin-4 (Homo sapiens, UniProt Q07011+Q96NY8)
SCN5A: Sodium channel protein type 5 subunit alpha (SCN5A, Homo sapiens, UniProt Q14524)
T1: RNA, tetracycline-neomycin hybrid riboswitch; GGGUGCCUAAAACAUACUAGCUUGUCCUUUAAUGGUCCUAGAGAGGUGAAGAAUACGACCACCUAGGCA

SMILES | target | assay | test system | setting | how to read | quantity | result
CC(=O)N[C@H]1[C@@H](OC(C)C(N)C(=O)O)O[C@H](CO[C@]2(C(=O)O)C[C@H](O)[C@@H](NC(C)=O)[C@H]([C@H](O)[C@H](O)CO)O2)[C@H](O)[C@@H]1O (stereo partly shown) | CLEC10A, carbohydrate recognition domain (Homo sapiens, UniProt Q8IUN9) | binding to carbohydrate recognition domain, isothermal titration calorimetry | – | 293 K | – | ΔH | -12 ± 1 kcal/mol
Nc1ncnc2c1ncn2[C@@H]1O[C@H](COP(=O)(O)OP(=O)(O)OP(=O)(O)O)[C@@H](O)[C@H]1O | P2X purinoceptor 7 (P2rx7, Rattus norvegicus, UniProt Q64663, Q143A/R125A) | ion current, agonist, two-electrode voltage clamp | Xenopus laevis oocytes | 55 µM | baseline: highest concentration response | normalized current | 0.231 and 0.29 and 0.194
N[C@@H](Cc1c[nH]c2ccccc12)C(=O)O | Transcription attenuation protein MtrB (mtrB, Halalkalibacterium halodurans, UniProt Q9KCC6) | isothermal titration calorimetry | – | concentration not given, 25 °C, site 2 two-site model | – | binding stoichiometry | 11.4 ± 0.2
CCCC[C@@H]1NC(=O)[C@H](Cc2ccc(O)cc2)NC(=O)[C@@H]2CCCN2C(=O)[C@H](CC(=O)O)NC(=O)[C@H](C)NC(=O)[C@H](Cc2ccccc2)NC(=O)[C@@H]2CSCCC(=O)N3CN(CN(C3)C(=O)CCSC[C@@H](C(=O)N[C@@H](C)C(N)=O)NC1=O)C(=O)CCSC[C@H](NC(C)=O)C(=O)N[C@@H](CC(C)(C)C)C(=O)N1CCC[C@H]1C(=O)N[C@@H](CCC(=O)O)C(=O)N[C@H](CCCCNC(=O)CCc1cn(CCOCCOCCOCCOCCOCCC(=O)NCCCC[C@H]3NC(=O)[C@H](Cc4cccc5ccccc45)NC(=O)[C@@H]4CCCN4C(=O)[C@@H](NC(C)=O)CSCCC(=O)N4CN5CN(C4)C(=O)CCSC[C@H](NC3=O)C(=O)N[C@@H](CCSC)C(=O)N[C@@H](CCCCNC(=N)N)C(=O)N[C@@H](CC(=O)O)C(=O)N[C@@H](Cc3c[nH]c4ccccc34)C(=O)N[C@@H](CO)C(=O)N[C@@H]([C@@H](C)O)C(=O)N3CCC[C@H]3C(=O)N3C[C@H](O)C[C@H]3C(=O)N[C@@H](Cc3c[nH]c4ccccc34)C(=O)N[C@H](C(N)=O)CSCCC5=O)nn1)C(=O)N1CCC[C@H]1C(=O)N[C@@H](Cc1ccc(O)cc1)C(=O)N2 | Tumor necrosis factor receptor superfamily member 9/Nectin-4 | reporter gene, agonist | HT-1376 coculture with reporter cells | – | baseline: background | Emax | 44 fold
O=C(O)c1ccccc1Nc1cccc(C(F)(F)F)c1 | TAS2R14 (Homo sapiens, UniProt Q9NYV8) | G-protein dissociation, TRUPATH gustducin BRET | – | 300 nM, wild-type receptor, unit not given | baseline: vehicle | ΔBRET | 0.00115 and 0.000881 and 0.00574 and 0.00979 and 0.0449 and 0.014 and 0.0102
O=c1nc(SCc2ccc(C(F)(F)F)cc2)nc(SCc2csc3ccc(Cl)cc23)[nH]1 | TOP2A (Homo sapiens, UniProt P11388) | decatenation | – | 0.12 µM, replicate 2 | – | decatenated DNA | 0%
NC(=O)c1cccc(C#CCN(CC[C@H](N)C(=O)O)C[C@H]2O[C@@H](n3cnc4c(N)ncnc43)[C@H](O)[C@@H]2O)c1 | RNMT (Homo sapiens, UniProt O43148) | cellular thermal shift | HeLa cell lysate | 50 µM | baseline: DMSO | Tagg shift | ~5 °C
NC(=O)c1ccc[n+]([C@@H]2O[C@H](COP(=O)([O-])OP(=O)(O)OC[C@H]3O[C@@H](n4cnc5c(NCCNC(=O)CCCCCNC(=O)CCCCCNC(=O)CCCC[C@@H]6SC[C@@H]7NC(=O)N[C@@H]76)ncnc54)[C@H](O)[C@@H]3O)[C@@H](O)[C@H]2O)c1 | PARP2 (Homo sapiens, UniProt Q9UGN5) | substrate, DELFIA auto-modification | – | – | – | apparent Km | 5 µM
CCOC(F)(F)c1nnc2cnc(-c3cnc(OCC(F)(F)F)c(F)c3)cn12 | SCN5A | persistent sodium current, patch clamp | – | together with: ATX-II | – | Hill slope | 172
Nc1ncnc2c1ncn2[C@@H]1O[C@H](COP(=O)(O)OP(=O)(O)OP(=O)(O)O)[C@@H](O)[C@H]1O | P2X purinoceptor 2 (P2RX2, Homo sapiens, UniProt Q9UBL9, R130E) | channel activation, agonist | transfected HEK293 cells | divalent-free solution, together with: 10 mM EDTA | – | Hill coefficient | 1.8 ± 0.1
Cc1cccc(N2CC(C(=O)O)CC2=O)c1 (stereo not shown) | ATP-dependent RNA helicase DDX1 (Homo sapiens, UniProt Q92499) | binding, affinity selection mass spectrometry | – | – | baseline: other proteins in batch | log fold enrichment | 0.125
CNC[C@H](O)c1cccc(O)c1 | ADRA1A (Homo sapiens, UniProt P35348) | agonist, immunoblot, measured: phospho-ERK1/2 | HEK293 stably transfected with ADRA1A | 10 µM | – | duration of ERK phosphorylation | 24 h
Cc1cc(-c2cccc(-n3cc(COC(=O)[C@]4(C)C=C(C(=O)OC(C)(C)C)C(=O)CC4)nn3)c2)c(C)c2c1CNCC2 | MAPK8 (Homo sapiens, UniProt P45983) | D-peptide binding, inhibitor, FP peptide displacement | – | 50 µM | lower is stronger displacement | fraction bound | 0.207
CC[C@@H](C)[C@@H](NC(=O)[C@@H](Cc1ccc(O)cc1)NC(=O)[C@H]1CCCN1C(=O)[C@@H](CCCNC(=N)N)NC(=O)[C@H](N)Cc1c[nH]cn1)C(=O)N[C@H](C)C(=O)N[C@H](Cc1c[nH]cn1)C(=O)N[C@H](CCCNC(=N)N)C(=O)N[C@@H](C(=O)N[C@H](Cc1ccc(O)cc1)C(=O)N[C@H](CO)C(=O)N[C@H](Cc1ccccc1)C(N)=O)C(C)C | Transferrin receptor protein 1 (Tfrc, Mus musculus, UniProt Q62351) | flow cytometry | RAW264.7 | 2 h, pH 6, replicate 2, unit not given | baseline: 0 h | surface TFRC expression | 1.02
O=C1CCC(N2Cc3cc(-c4cnc5ccccc5c4)ccc3C2=O)C(=O)N1 (stereo not shown) | Cereblon/Casein kinase I alpha (CSNK1A1/CRBN, Homo sapiens, UniProt P48729+Q96SW2) | degrader, Western blot time-course | MOLT-4 | 1 µM | – | degradation time | < 3 h
CCCC[C@@H]1NC(=O)[C@H](Cc2ccc(O)cc2)NC(=O)[C@@H]2CCCN2C(=O)[C@H](CC(N)=O)NC(=O)[C@H](C)NC(=O)[C@H](Cc2ccccc2)NC(=O)[C@@H]2CSCCC(=O)N3CN(CN(C3)C(=O)CCSC[C@H](NC(C)=O)C(=O)N[C@@H](CC(C)(C)C)C(=O)N3CCC[C@H]3C(=O)N[C@@H](CCC(=O)O)C(=O)N[C@H](CCCCNC(=O)CCc3cn(CCOCCOCCOCCN(CCOCCOCCOCCC(=O)N[C@H]4CSCCC(=O)N5CN6CN(C5)C(=O)CCSC[C@H](NC(=O)[C@@H](CC(=O)O)NC(=O)[C@H](Cc5cccc7ccccc57)NC(=O)[C@@H]5CCCN5C4=O)C(=O)N[C@@H](CCSC)C(=O)N[C@@H](CCCCNC(=N)N)C(=O)N[C@@H](CC(=O)O)C(=O)N[C@@H](Cc4c[nH]c5ccccc45)C(=O)N[C@@H](CO)C(=O)N[C@@H]([C@@H](C)O)C(=O)N4CCC[C@H]4C(=O)N4C[C@H](O)C[C@H]4C(=O)N[C@@H](Cc4c[nH]c5ccccc45)C(=O)N[C@H](C(N)=O)CSCCC6=O)CCOCCOCCOCCn4cc(CCC(=O)NCCCC[C@H]5NC(=O)[C@H](CCC(=O)O)NC(=O)[C@@H]6CCCN6C(=O)[C@H](CC(C)(C)C)NC(=O)[C@@H](NC(C)=O)CSCCC(=O)N6CN7CN(C6)C(=O)CCSC[C@H](NC(=O)[C@H](Cc6ccc(O)cc6)NC(=O)[C@@H]6CCCN6C5=O)C(=O)N[C@@H](Cc5ccccc5)C(=O)N[C@@H](C)C(=O)N[C@@H](CC(N)=O)C(=O)N5CCC[C@H]5C(=O)N[C@@H](Cc5ccc(O)cc5)C(=O)N[C@@H](CCCC)C(=O)N[C@H](C(N)=O)CSCCC7=O)nn4)nn3)C(=O)N3CCC[C@H]3C(=O)N[C@@H](Cc3ccc(O)cc3)C(=O)N2)C(=O)CCSC[C@@H](C(N)=O)NC1=O | Tumor necrosis factor receptor superfamily member 9/Nectin-4 | reporter gene, agonist | HT-1376 coculture with reporter cells | – | baseline: background | Emax | 25 fold
CC[C@@H]1[C@H](F)C(=O)N[C@@H]1COc1nccc2cc(C(N)=O)c(OC)cc12 | PRPF4B (Homo sapiens, UniProt Q13523) | ATP-site probe binding, inhibitor, ActivX ATP probe profiling | THP-1 cell lysate | 0.01 mM, other probe site | – | inhibition | 11%
O=C1c2ccccc2CCCN1CCCCN1CCN(c2ccccn2)CC1 | HTR5A (Homo sapiens, UniProt P47898) | radioligand binding | – | concentration not given, together with: [3H]LSD | – | inhibition | 58.8%
O=c1ccn([C@H]2C[C@H](O)[C@@H](COP(=O)(O)OP(=O)(O)OP(=O)(O)O)O2)c(=O)[nH]1 | DNA-directed RNA polymerase subunit beta' / DNA-directed RNA polymerase subunit beta (rpoC/rpoB, Escherichia coli, UniProt P0A8T7+P0A8V2) | RNA extension, denaturing gel | Escherichia coli, elongation complex, 6-MI template | 5 µM, 10 min, 25 °C | – | incorporation efficiency | 85%
C#CCNS(=O)(=O)c1ccc(CCN(Cc2cc(Cl)ccc2OCCC)C(=O)c2ccc(F)cc2)cc1 | Nlrp3 (Mus musculus, UniProt Q8R4B8) | IL-1β release | J774A.1 | together with: LPS, ATP | baseline: -label | fold potency | 2 fold
CC(=O)Nc1ccc(S(=O)(=O)N2CCN(CC(O)COc3ccc4ccccc4c3)CC2)cc1 (stereo not shown) | Sodium channel protein type 8 subunit alpha, C-terminal domain (SCN8A, Homo sapiens, UniProt Q9UQD0) | binding, protein thermal shift | – | 25 µM | – | delta Tm | 8.8 °C
Nc1nnc(-c2cccc(Cl)c2Cl)c(N)n1 | SCN5A | sodium current block kinetics, patch clamp | – | 280 µM, holding potential -120 mV | – | fast onset component | 92%
Nc1ncnc2c1ncn2[C@@H]1O[C@H](CO[P@](=O)(O)O[P@](=O)(O)O[P@@](=O)(O)S)[C@@H](O)[C@H]1O | GUK1 (Homo sapiens, UniProt Q16774) | binding, isothermal titration calorimetry | – | molar ratio 0.6998, fitted curve | – | ΔH | -1.32 kcal/mol
CC(=O)N[C@H](C(=O)N[C@@H](CC(N)=O)C(=O)N[C@@H](CCCCN)C(=O)N1CCC[C@H]1C(=O)N[C@@H](CC(C)C)C(=O)N1CCC[C@H]1C(=O)N1CCC[C@H]1C(=O)N[C@@H](CC(C)C)C(=O)N1CCC[C@H]1C(=O)N[C@H](C(=O)N[C@@H](C)C(N)=O)C(C)C)C(C)C | High osmolarity signaling protein SHO1, SH3 domain (SHO1, Saccharomyces cerevisiae, UniProt P40073) | ligand binding, FTIR spectroscopy, measured: asymmetric stretch band B | – | pH 7.0, SHO1 complex, together with: 4 mM peptide | – | wavenumber | 2242.8 ± 0.5 cm⁻¹
COC(=O)c1cn(C)c2ccc(-c3cccnc3)cc12 | Nuclear receptor subfamily 4 group A member 1 (NR4A1, Homo sapiens, UniProt P22736) | reporter gene, Gal4 hybrid reporter | – | 10 µM | baseline: vehicle | activation | 0.59 fold
NC[C@@H]1O[C@H](O[C@H]2[C@@H](O)[C@H](O[C@@H]3[C@@H](O)[C@H](N)C[C@H](N)[C@H]3O[C@H]3O[C@H](CN)[C@@H](O)[C@H](O)[C@H]3N)O[C@@H]2CO)[C@H](N)[C@@H](O)[C@@H]1O | T1, RNA, tetracycline-neomycin hybrid riboswitch | ITC | – | 25 °C, Mg2+ 10 mM, Na+ 100 mM, no tetracycline | – | Kd | 0.0536 µM
Cc1cc(Nc2cc(N3CCN(C)CC3)nc(Sc3ccc(NC(=O)C4CC4)cc3)n2)[nH]n1 | PRKX (Homo sapiens, UniProt P51817) | kinase activity, KinaseProfiler | – | 0.03 µM, species human | baseline: control | remaining activity | 95%
NCCCS(=O)(=O)O | SLC6A6 (Homo sapiens, UniProt P31641, Y138A) | binding, microscale thermophoresis | – | 500 µM, room temperature, together with: 50 nM labelled protein | higher = more binding | normalised MST signal | 0.891

For quick reference, copied from above:
SMILES | target | assay | test system | setting | how to read | quantity | result
CC(=O)N[C@H]1[C@@H](OC(C)C(N)C(=O)O)O[C@H](CO[C@]2(C(=O)O)C[C@H](O)[C@@H](NC(C)=O)[C@H]([C@H](O)[C@H](O)CO)O2)[C@H](O)[C@@H]1O (stereo partly shown) | CLEC10A, carbohydrate recognition domain (Homo sapiens, UniProt Q8IUN9) | binding to carbohydrate recognition domain, isothermal titration calorimetry | – | 293 K | – | ΔH | -12 ± 1 kcal/mol
O=C1c2ccccc2CCCN1CCCCN1CCN(c2ccccn2)CC1 | HTR5A (Homo sapiens, UniProt P47898) | radioligand binding | – | concentration not given, together with: [3H]LSD | – | inhibition | 58.8%
